Measured values pooled from the literature.
Every numbered part comes from another study and shows a few of its results, in no order.

Set 1 — technique: RNA Bind-n-Seq; form: RNA; matrix: in vitro; concentration: not given; baseline: input RNA pool; reading: higher = stronger binding
Target: RING finger protein unkempt homolog, zinc fingers 1-6, GST-SBP tag (UNK, Homo sapiens, UniProt Q9C0B0, residues 30-357)
Chain of UniProt Q9C0B0 (30-357, looked up): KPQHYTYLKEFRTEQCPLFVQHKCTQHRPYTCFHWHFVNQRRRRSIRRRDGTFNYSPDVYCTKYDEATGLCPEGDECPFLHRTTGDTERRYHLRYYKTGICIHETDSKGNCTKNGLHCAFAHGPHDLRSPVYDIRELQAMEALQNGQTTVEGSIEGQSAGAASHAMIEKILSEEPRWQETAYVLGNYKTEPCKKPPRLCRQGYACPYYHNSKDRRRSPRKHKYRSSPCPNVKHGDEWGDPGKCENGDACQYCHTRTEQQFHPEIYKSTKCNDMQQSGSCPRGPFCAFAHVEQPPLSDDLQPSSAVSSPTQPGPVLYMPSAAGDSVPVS
Setting: RNA with constant flanks, human-mouse chimeric sites, ends assumed
Constant ends, left off below: GGGAGUUCUACAGUCCGACGAUC … CAACAGAGGAUUGAGCAUCA
Sequence	bound/input enrichment [ratio]
CAGGGCACAGCACCUACCCCCUCCUCCUUUCCACACCUGCAAACCCUUUUACUUGGGCUGAAUAUUUAGUGUAAUUACAUCUCAGCUUUGAGGGCUCCUGUGGCAAAUUCCCGGAUUAAA	0.736
UGUAACUUAUCUGUAAAAGGUUCCCCCCCCUACUGUCCAAAAAAUAUGCAUGUAUAGUAAUUAGGACUUCAUUCCUCCAUGUUUUCUUCCCUUAUCUUACUGUCAUUGUCCUAAAACCUU	1.12
UAAGUUAUUUUGUACAGCUUUGUAAAUUCUUAACAUUUUUAUAUUGCCAUGUUUAUUUUGUUUGGGUAAUUUGGUUCAUUAAGUACAAAACCAAAUAACAUCUUUCAUUUUUCAGUAAUU	0.857
UACUCAACUUUCUUGCCACAUUUUGAAUUCCAAGACAUUAUUCCUCCAGAUGACUUCCUAACUAGUGAUGAAGAGCAAGAUUUGGUUUUAUUUGGAAGUUUGAGAGGACAAGUUGUUGGA	0.473
CACAGAGGCACCACCCCCCCCUCCUCCUUUCCACACCUGCAAACUCUUUUACUUGGGCUGAAUAUUUAGUGUAAUUACAUCUCAGCUUUGAGGGCUCCUGUGGCAAAAUACCCGGAUAAA	1.13
ACUCAGAGAUCCACCUCCCAAAGUGCUGGGAGUAAAGUCUGAUAUUACACACCUAACUUGAUGGAUAUAUAUUUUUUCUCUUUUAUGUCUUCCUGUUCGUCCAGGGAAGAAAGAUUUGUU	0.972
GCACUUCUCAAAUACUGGCCAAAGACUCACAGUCCAAAAGAAGUAAUGUUCUUAAAUGAAUUAGAAGAGAUUUUAGAUGUAAUUGAACCAUCAGAAUUUGUGAAGAUCAUGGAGCCUCUU	0.46

Set 2 — technique: aptamer microarray, sandwich; form: DNA with 2'F-ANA; matrix: in vitro; concentration: 200 nM; with: Cy3 exosite-II aptamer, 400 nM; reading: higher = stronger binding; sequence: GGTTGGTGTGGTTGG
Target: Prothrombin, mature alpha-thrombin (F2, Homo sapiens, UniProt P00734)
Setting: whole 15-mer aptamer, many near background
Modification	mean fluorescence intensity [a.u.]
2'F-ANA at 1 6 7 9 15	169
2'F-ANA at 1 2 3 4 5 8 9 12 15	129
2'F-ANA at 2 3 7 8 9 11 13 14	408
2'F-ANA at 1 4 6 7 11	90.4
2'F-ANA at 1 3 8 11 12 13 14	114
2'F-ANA at 2 3 5 6 9 11	74.7
2'F-ANA at 3 4 5 6 7 8 10 12 13	50
2'F-ANA at 1 2 3 6 7 8 10 11	65.6
2'F-ANA at 3 6 12	1320

Set 3 — technique: protein binding microarray; form: double-stranded DNA, one strand shown; matrix: in vitro; concentration: not given; baseline: not given; reading: higher = stronger binding
Target: Histone acetyltransferase KAT6A, winged helix 2, GST fusion (KAT6A, Homo sapiens, UniProt Q92794, residues 85-181)
Setting: 8-mer, flanks averaged, mean of 2 arrays, mostly near background
Residues (chain): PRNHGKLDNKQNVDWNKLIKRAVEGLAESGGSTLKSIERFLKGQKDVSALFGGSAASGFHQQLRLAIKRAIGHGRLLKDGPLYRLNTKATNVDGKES
Sequence	E-score
GACAAAGA	0.0799
ACCCTGTG	0.0181
TAATTCTA	0.0775
TCCCTAAA	-0.0376
CTCGGTTC	-0.078
CCAGCATA	-0.00543

Other studies, line by line
Substance	target	test	system	setting	scale	quantity	result
PhoQ, residues 284 288 289 292 302 303 ASHLAV	PhoP, residues 12 14 15 18 19 NQAHL (Escherichia coli, UniProt P23836)	Sort-seq, item: YFP reporter	E. coli	PhoQ-PhoP variant library, with: 10 µM Mg2+	baseline: high Mg2+ state, higher = stronger signaling	fold induction	1.19

Repeated from above (set 1):
Sequence	bound/input enrichment [ratio]
UAAGUUAUUUUGUACAGCUUUGUAAAUUCUUAACAUUUUUAUAUUGCCAUGUUUAUUUUGUUUGGGUAAUUUGGUUCAUUAAGUACAAAACCAAAUAACAUCUUUCAUUUUUCAGUAAUU	0.857
UACUCAACUUUCUUGCCACAUUUUGAAUUCCAAGACAUUAUUCCUCCAGAUGACUUCCUAACUAGUGAUGAAGAGCAAGAUUUGGUUUUAUUUGGAAGUUUGAGAGGACAAGUUGUUGGA	0.473
CACAGAGGCACCACCCCCCCCUCCUCCUUUCCACACCUGCAAACUCUUUUACUUGGGCUGAAUAUUUAGUGUAAUUACAUCUCAGCUUUGAGGGCUCCUGUGGCAAAAUACCCGGAUAAA	1.13
